Experimental data gathered from unrelated publications.
Each numbered part is a random draw from the data of one study; scales do not carry over between parts.
UniProt P11309, sequence (whole entry, looked up): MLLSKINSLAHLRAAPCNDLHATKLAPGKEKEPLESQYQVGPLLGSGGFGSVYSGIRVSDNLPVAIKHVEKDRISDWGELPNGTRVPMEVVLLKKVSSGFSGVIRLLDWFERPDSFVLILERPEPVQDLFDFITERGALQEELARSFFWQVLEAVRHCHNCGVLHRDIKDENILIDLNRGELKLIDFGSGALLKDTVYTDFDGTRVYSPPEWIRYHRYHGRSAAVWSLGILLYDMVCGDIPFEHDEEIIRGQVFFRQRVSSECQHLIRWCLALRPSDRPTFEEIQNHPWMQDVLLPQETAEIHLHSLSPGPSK
UniProt O95835, sequence (whole entry, looked up): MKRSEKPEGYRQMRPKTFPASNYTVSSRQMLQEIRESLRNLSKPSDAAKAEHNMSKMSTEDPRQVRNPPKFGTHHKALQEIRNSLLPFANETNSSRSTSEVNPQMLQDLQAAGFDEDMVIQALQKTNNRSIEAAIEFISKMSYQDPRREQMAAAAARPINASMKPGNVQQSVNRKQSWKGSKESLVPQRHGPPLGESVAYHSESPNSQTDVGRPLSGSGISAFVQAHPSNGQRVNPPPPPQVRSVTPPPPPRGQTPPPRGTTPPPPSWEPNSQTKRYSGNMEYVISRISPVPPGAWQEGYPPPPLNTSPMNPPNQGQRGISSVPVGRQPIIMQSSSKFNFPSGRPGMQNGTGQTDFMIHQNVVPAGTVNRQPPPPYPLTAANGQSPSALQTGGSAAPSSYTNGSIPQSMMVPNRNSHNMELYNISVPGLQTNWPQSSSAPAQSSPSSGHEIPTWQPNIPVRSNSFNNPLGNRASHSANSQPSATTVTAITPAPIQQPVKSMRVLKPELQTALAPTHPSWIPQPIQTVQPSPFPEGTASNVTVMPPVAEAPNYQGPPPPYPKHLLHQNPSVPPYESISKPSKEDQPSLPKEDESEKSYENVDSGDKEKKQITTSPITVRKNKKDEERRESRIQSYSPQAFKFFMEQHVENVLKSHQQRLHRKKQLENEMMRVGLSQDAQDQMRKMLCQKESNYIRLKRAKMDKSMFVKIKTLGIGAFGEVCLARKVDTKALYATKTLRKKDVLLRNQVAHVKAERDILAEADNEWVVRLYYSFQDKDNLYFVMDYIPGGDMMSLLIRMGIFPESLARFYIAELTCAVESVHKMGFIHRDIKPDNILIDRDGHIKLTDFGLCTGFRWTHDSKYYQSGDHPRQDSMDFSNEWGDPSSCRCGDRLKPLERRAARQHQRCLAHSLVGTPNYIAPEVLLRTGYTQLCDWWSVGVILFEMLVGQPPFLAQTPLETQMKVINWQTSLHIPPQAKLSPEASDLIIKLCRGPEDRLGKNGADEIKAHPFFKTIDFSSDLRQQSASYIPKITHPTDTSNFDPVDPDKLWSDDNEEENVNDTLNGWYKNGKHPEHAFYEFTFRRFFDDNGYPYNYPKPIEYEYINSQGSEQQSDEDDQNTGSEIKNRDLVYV
UniProt O00141, sequence (whole entry, looked up): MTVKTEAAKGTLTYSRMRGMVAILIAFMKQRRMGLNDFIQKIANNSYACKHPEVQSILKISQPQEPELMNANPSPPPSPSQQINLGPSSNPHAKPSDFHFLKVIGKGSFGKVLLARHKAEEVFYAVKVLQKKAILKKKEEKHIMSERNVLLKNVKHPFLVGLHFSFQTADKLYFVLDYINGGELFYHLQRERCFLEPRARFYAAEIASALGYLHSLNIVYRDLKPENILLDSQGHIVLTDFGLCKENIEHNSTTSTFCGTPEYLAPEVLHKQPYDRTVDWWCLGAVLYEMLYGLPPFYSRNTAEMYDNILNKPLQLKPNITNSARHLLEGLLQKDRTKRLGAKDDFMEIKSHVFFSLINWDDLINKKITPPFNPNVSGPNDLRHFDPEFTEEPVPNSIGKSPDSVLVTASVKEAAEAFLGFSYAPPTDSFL
UniProt P54756, sequence (whole entry, looked up): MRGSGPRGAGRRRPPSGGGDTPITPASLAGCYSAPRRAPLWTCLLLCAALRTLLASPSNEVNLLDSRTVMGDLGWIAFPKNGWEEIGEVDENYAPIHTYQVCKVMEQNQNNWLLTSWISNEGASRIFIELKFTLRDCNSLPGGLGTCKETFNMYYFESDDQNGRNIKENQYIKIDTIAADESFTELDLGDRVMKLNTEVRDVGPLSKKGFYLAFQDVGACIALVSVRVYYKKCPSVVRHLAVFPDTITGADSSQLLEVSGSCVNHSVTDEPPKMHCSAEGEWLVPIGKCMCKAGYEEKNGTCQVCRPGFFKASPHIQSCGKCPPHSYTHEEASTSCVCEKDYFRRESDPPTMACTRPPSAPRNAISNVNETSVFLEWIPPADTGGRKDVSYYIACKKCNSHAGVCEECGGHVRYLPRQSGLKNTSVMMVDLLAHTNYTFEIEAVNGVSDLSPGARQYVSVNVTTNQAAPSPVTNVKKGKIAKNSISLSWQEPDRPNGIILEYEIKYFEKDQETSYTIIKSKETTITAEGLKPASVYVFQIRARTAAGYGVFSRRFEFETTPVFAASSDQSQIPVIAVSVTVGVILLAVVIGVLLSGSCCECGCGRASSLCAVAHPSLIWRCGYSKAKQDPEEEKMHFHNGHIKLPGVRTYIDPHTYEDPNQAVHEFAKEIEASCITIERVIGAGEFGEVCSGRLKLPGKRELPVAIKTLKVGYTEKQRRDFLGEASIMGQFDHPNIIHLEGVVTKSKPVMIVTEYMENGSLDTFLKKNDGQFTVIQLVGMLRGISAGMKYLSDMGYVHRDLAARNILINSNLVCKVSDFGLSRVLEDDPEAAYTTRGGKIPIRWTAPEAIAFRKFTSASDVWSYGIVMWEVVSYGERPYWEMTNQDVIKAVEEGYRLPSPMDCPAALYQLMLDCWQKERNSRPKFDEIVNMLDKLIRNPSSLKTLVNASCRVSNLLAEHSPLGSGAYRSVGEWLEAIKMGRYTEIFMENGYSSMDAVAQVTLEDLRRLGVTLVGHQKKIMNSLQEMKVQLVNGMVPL
UniProt O43353, sequence (whole entry, looked up): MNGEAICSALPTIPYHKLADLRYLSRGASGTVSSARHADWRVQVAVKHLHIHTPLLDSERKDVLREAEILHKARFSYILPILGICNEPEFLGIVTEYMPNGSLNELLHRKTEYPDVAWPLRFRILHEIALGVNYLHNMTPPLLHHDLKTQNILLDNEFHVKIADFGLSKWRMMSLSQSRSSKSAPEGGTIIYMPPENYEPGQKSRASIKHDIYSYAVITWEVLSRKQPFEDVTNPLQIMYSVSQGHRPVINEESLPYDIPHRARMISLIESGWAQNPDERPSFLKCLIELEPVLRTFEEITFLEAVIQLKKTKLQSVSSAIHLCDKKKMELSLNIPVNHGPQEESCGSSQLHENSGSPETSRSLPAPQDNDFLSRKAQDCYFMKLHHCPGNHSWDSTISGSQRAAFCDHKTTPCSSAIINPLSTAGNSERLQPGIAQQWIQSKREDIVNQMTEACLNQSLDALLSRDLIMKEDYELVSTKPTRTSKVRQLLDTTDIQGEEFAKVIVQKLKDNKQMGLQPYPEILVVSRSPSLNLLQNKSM
UniProt P25098, sequence (whole entry, looked up): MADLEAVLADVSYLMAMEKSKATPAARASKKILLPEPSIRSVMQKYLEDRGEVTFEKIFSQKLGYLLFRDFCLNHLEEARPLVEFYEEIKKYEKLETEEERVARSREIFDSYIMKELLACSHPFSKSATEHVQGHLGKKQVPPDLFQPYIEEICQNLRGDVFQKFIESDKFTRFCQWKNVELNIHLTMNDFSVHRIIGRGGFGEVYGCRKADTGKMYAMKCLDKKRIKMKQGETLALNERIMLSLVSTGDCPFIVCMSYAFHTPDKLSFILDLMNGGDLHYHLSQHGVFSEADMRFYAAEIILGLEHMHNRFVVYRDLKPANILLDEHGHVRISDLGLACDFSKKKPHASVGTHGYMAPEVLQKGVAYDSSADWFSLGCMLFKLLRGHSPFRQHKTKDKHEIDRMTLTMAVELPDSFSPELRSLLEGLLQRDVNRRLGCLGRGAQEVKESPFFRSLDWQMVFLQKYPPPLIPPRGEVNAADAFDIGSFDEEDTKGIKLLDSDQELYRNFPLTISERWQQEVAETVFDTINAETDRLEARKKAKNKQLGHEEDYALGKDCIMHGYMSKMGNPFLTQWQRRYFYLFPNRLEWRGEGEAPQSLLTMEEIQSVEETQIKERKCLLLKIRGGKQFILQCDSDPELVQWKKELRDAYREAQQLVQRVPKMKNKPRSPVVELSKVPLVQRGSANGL
UniProt P52564, sequence (whole entry, looked up): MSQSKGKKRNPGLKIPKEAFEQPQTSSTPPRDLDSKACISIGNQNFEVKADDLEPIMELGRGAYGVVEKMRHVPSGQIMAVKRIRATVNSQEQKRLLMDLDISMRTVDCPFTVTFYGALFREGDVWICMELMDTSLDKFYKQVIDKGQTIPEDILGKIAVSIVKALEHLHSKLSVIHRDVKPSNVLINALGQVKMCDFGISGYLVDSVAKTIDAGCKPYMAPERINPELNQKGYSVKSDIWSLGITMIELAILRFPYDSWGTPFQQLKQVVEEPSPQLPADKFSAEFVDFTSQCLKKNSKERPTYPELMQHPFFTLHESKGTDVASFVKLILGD
UniProt P07948, sequence (whole entry, looked up): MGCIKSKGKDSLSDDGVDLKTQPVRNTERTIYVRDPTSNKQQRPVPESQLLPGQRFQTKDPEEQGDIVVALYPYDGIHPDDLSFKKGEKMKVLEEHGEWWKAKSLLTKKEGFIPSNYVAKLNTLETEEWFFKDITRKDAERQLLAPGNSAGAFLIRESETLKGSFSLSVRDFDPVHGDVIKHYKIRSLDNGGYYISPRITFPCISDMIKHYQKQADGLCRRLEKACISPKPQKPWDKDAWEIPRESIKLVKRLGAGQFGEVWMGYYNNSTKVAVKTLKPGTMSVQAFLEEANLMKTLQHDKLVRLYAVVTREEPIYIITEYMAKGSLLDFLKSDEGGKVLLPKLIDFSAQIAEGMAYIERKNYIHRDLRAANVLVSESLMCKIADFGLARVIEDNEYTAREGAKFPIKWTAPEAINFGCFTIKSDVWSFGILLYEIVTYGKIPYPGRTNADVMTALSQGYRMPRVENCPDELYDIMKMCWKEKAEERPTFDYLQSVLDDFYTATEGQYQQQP

Block 1
Observed: AlphaScreen signal
Technique: AlphaScreen counter screen
Sample: His6 peptide without bromodomain
Tested at: 50 µM
Notes: assay interference check
`Cc1cc(O)c2c(c1)C(=O)c1cc(O)cc(O)c1C2=O` gave an inhibition of 50.3%.
The inhibition of `CCOC(=O)C(C)Sc1ccc2nnc(-c3ccc(OC)c(OC)c3)n2n1` (stereo not shown) is reported as 14.6%.
For `CC(C)(C)Cn1c(N)nc2ccc(-c3[nH]c(C(C)(C)C)nc3-c3ccc(F)cc3)nc21`, the inhibition was 58.2%.
For `O=C1Nc2ccc(Br)cc2C1=CC(=O)c1ccc(F)cc1`, the inhibition was 65.5%.
`O=c1sn(-c2cccc3ccccc23)c(=O)n1Cc1ccccc1` gave an inhibition of -15.2%.
The inhibition of `COc1ccc(Nc2ncc(F)c(N3CCOCC3)n2)cc1` is reported as 15.7%.
With `COc1ccc(Nc2nccc(-c3cccc(N)c3)n2)cc1` the inhibition was 30.3%.
For `CC(=O)c1c(C)c2cnc(Nc3ccc(N4CCNCC4)cn3)nc2n(C2CCCC2)c1=O`, the inhibition was 39.2%.
`CC(Nc1nccnc1-c1ccccc1Cl)c1ccccc1` (stereo not shown) has an inhibition of 16.4%.

Block 2
Structure (SMILES): N#CC1(c2ccccn2)CCN(Cc2cc(C(=O)N3CCCC3)c(=O)n3ccccc23)CC1
Observed: cell-free assay
Technique: competition with immobilised ligand
Tested at: 1 µM
For BRAF (Homo sapiens, UniProt P15056, V600E): remaining binding read 99%.
It gave 83% for remaining binding (RIPK2 (Homo sapiens, UniProt O43353)).
It gave 95% for remaining binding (RET (Homo sapiens, UniProt P07949, V804M)).
MAP3K5 (Homo sapiens, UniProt Q99683) — remaining binding: 80%.
It gave 100% for remaining binding (PIK3CA (Homo sapiens, UniProt P42336, H1047L)).
It gave 86% for remaining binding (MERTK (Homo sapiens, UniProt Q12866)).
The remaining binding was 94% (CSF1R (Homo sapiens, UniProt P07333)).
Tyrosine-protein kinase JAK1, JH2 (JAK1, Homo sapiens, UniProt P23458) — remaining binding: 100%.
It gave 54% for remaining binding (PRKACB (Homo sapiens, UniProt P22694)).
It gave 100% for remaining binding (MAP4K1 (Homo sapiens, UniProt Q92918)).
For STK17B (Homo sapiens, UniProt O94768): remaining binding read 93%.
PKMYT1 (Homo sapiens, UniProt Q99640) — remaining binding: 79%.
EPHB3 (Homo sapiens, UniProt P54753) — remaining binding: 90%.
LATS1 (Homo sapiens, UniProt O95835) — remaining binding: 100%.
FLT3 (Homo sapiens, UniProt P36888, N841I) — remaining binding: 100%.
The remaining binding was 100% (SGK1 (Homo sapiens, UniProt O00141)).
It gave 88% for remaining binding (PRKACA (Homo sapiens, UniProt P17612)).
The remaining binding was 100% (PIM1 (Homo sapiens, UniProt P11309)).
For BUB1 (Homo sapiens, UniProt O43683): remaining binding read 100%.
For GRK2 (Homo sapiens, UniProt P25098): remaining binding read 82%.

Block 3
Organism: Plasmodium berghei
Mode: inhibitor
Cells: Huh-7
Strain: liver stage
Tested at: 10 µM
Time: 24 h
Relative to: untreated control
With `CCCCC(=O)O[C@]1(C(=O)CO)CC[C@H]2[C@@H]3CCC4=CC(=O)CC[C@]4(C)[C@H]3[C@@H](O)C[C@@]21C` the infection rate was 72.3%.
The infection rate of `Cc1ccc(Cl)c(Nc2ccccc2C(=O)O)c1Cl` is reported as 105%.
With `Oc1c(I)cc(I)c2cccnc12` the infection rate was 92.2%.
The infection rate of `Cc1cccc(Nc2ccccc2C(=O)O)c1C` is reported as 99.2%.
`CNC1(C)C2CCC(C2)C1(C)C` (stereo not shown) has an infection rate of 102%.
With `CC(=O)N1CCN(c2ccc(OC[C@@H]3CO[C@@](Cn4ccnc4)(c4ccc(Cl)cc4Cl)O3)cc2)CC1` (racemic) the infection rate was 47.5%.
For `CC(C)(C)NC[C@H](O)COc1cccc2c1CCCC2=O`, the infection rate was 109%.
The infection rate of `OC[C@@H](O)[C@@H](O)[C@H](O)[C@H](O)CO` is reported as 99.6%.

Block 4
SMILES: N#C/C(=C(/N)SC1C=CC=CC1)c1cccc(C(O)c2ccncc2)c1 (stereo not shown)
Observed: enzyme activity
Mode: inhibitor
Tested at: 0.5 µM
Relative to: control
MKNK2 (Homo sapiens, UniProt Q9HBH9) — remaining activity: 114%.
It gave 102% for remaining activity (IRAK4 (Homo sapiens, UniProt Q9NWZ3)).
It gave 98.5% for remaining activity (NEK4 (Homo sapiens, UniProt P51957)).
For LRRK2 (Homo sapiens, UniProt Q5S007): remaining activity read 102%.
For MAP4K2 (Homo sapiens, UniProt Q12851): remaining activity read 79%.
The remaining activity was 101% (AKT3 (Homo sapiens, UniProt Q9Y243)).
For EPHA5 (Homo sapiens, UniProt P54756): remaining activity read 107%.
Cyclin-dependent kinase 9, with cyclin T1 (CDK9, Homo sapiens, UniProt P50750) — remaining activity: 101%.
MAPK13 (Homo sapiens, UniProt O15264) — remaining activity: 98.8%.
For MAPK12 (Homo sapiens, UniProt P53778): remaining activity read 97.2%.
The remaining activity was 97.8% (MAP2K6 (Homo sapiens, UniProt P52564)).
MAP3K10 (Homo sapiens, UniProt Q02779) — remaining activity: 90.5%.
CSNK2A1 (Homo sapiens, UniProt P68400) — remaining activity: 98.7%.
It gave 93.5% for remaining activity (BTK (Homo sapiens, UniProt Q06187)).
KIT (Homo sapiens, UniProt P10721) — remaining activity: 88.5%.
The remaining activity was 93.6% (PRKCI (Homo sapiens, UniProt P41743)).
CSNK1A1 (Homo sapiens, UniProt P48729) — remaining activity: 97.1%.
The remaining activity was 109% (CHEK1 (Homo sapiens, UniProt O14757)).
STK38 (Homo sapiens, UniProt Q15208) — remaining activity: 98.3%.
For PRKCD (Homo sapiens, UniProt Q05655): remaining activity read 98.6%.
It gave 97.9% for remaining activity (LYN (Homo sapiens, UniProt P07948)).

For quick reference, copied from above (block 3):
With `CCCCC(=O)O[C@]1(C(=O)CO)CC[C@H]2[C@@H]3CCC4=CC(=O)CC[C@]4(C)[C@H]3[C@@H](O)C[C@@]21C` the infection rate was 72.3%.
The infection rate of `Cc1ccc(Cl)c(Nc2ccccc2C(=O)O)c1Cl` is reported as 105%.
With `Oc1c(I)cc(I)c2cccnc12` the infection rate was 92.2%.
The infection rate of `Cc1cccc(Nc2ccccc2C(=O)O)c1C` is reported as 99.2%.
`CNC1(C)C2CCC(C2)C1(C)C` (stereo not shown) has an infection rate of 102%.
With `CC(=O)N1CCN(c2ccc(OC[C@@H]3CO[C@@](Cn4ccnc4)(c4ccc(Cl)cc4Cl)O3)cc2)CC1` (racemic) the infection rate was 47.5%.
For `CC(C)(C)NC[C@H](O)COc1cccc2c1CCCC2=O`, the infection rate was 109%.
The infection rate of `OC[C@@H](O)[C@@H](O)[C@H](O)[C@H](O)CO` is reported as 99.6%.
